# Experimental data collected from several papers.
# Lines come from different studies, so protocols differ. Numbers after ± are the reported error.
# Cell line: Jurkat
SMILES,read-out,action,technique,time,notes,with,IC50
CC[C@@H]1NC(=O)[C@H]([C@H](O)[C@H](C)Cc2nc3ccc(C(=O)OC)cc3[nH]2)N(C)C(=O)[C@H](C(C)C)N(C)C(=O)[C@H](CC(C)C)N(C)C(=O)[C@H](CC(C)C)N(C)C(=O)[C@@H](C)NC(=O)[C@H](C)NC(=O)[C@H](CC(C)C)N(C)C(=O)[C@H](C(C)C)NC(=O)[C@H](CC(C)C)N(C)C(=O)CN(C)C1=O,reporter gene,inhibitor,NFAT luciferase reporter,,,,10 µM
O=C1c2cccc3cccc(c23)C12NC(Cc1ccc(O)cc1)C([N+](=O)[O-])C2c1ccc(Cl)cc1 (stereo not drawn),cell growth or viability,,MTT,24 h,,,65.7 µM
Cc1ccc(C(C)C)cc1.[Cl-].[Cl-].[Ru+2].c1ccc(P(=Nc2cccc3cccnc23)(c2ccccc2)c2ccccc2)cc1,cell viability,,MTT,24 h,,,0.9 ± 0.32 µM
O=C1c2cccc3cccc(c23)C12NC(Cc1ccc(O)cc1)C([N+](=O)[O-])C2c1cccc([N+](=O)[O-])c1 (stereo not drawn),cell growth or viability,,MTT,48 h,,,31.9 µM
C1=CCCC=CCC1.F[P-](F)(F)(F)(F)F.[Pt+][c]1ccccc1P(=Nc1ccccc1)(c1ccccc1)c1ccccc1,cell death,,,,,,0.6 µM
O=C(N=P12CN3CN(CN(C3)C1)C2)c1cccc[c]1[Pd][Br].O=S(=O)([O-])c1cccc(P(c2cccc(S(=O)(=O)[O-])c2)c2cccc(S(=O)(=O)[O-])c2)c1.[Na+].[Na+].[Na+],cytotoxicity,,MTT,24 h,1% DMSO,,322 ± 29 µM
C(=C/c1ccccc1)/c1ccccc1,cell growth or viability,,ATP luminescence,24 h,,,38 µM
CCC(/C=C/C(=O)O)=C\C(=O)C[C@H](C)C[C@@H](C)CC[C@H](O)[C@H](C)C(=O)CC(O)[C@H](C)[C@@H](C)OC(=O)C[C@@H](O)C1=C(C)C(=O)OC1=O (stereo partly drawn),cell growth or viability,,MTS,,,,10 µM
Cc1ccc(C(C)C)cc1.O=C(N=P(c1ccccc1)(c1ccccc1)c1ccccc1)c1[c-]cccc1.[Cl-].[Ru+2],cell viability,,MTT,24 h,,,2.39 ± 0.27 µM
CC(=O)C=C(C)[O][Pd][c]1ccccc1C(=O)N=P12CN3CN(CN(C3)C1)C2,cytotoxicity,,MTT,24 h,1% DMSO,,10.5 ± 1.8 µM
Cc1ccc(C2C([N+](=O)[O-])C(Cc3ccc(O)cc3)NC23C(=O)c2cccc4cccc3c24)cc1 (stereo not drawn),cell growth or viability,,MTT,24 h,,,71.2 µM
CC(C)C[C@@H]1NC(=O)[C@H](CC(C)C)NC(=O)[C@H](Cc2ccccc2)NC(=O)[C@@H]2CSSC[C@@H](C(=O)O)NC(=O)[C@H](CSSC[C@H](N)C(=O)N3CCC[C@H]3C(=O)N2)NC(=O)CNC1=O,cell adhesion,,,45 min,,ICAM-1-Fc,~80 µM
O=C1c2cccc[c]2[Au-]([Cl])([Cl])[N+]1=P(c1ccccc1)(c1ccccc1)c1ccccc1,cell viability,,MTT,24 h,,,3.4 ± 0.5 µM
O=C1c2cccc3cccc(c23)C12NC(Cc1ccc(O)cc1)C([N+](=O)[O-])C2c1ccccc1 (stereo not drawn),cell growth or viability,,MTT,48 h,,,29.4 µM
Cc1ccc(C(C)C)cc1.F[P-](F)(F)(F)(F)F.O=C(N=P(c1ccccc1)(c1ccccc1)c1ccccc1)c1ccccn1.[Cl-].[Ru+2],cell viability,,MTT,24 h,,,1.1 ± 0.14 µM

# For quick reference, copied from above:
SMILES,read-out,action,technique,time,notes,with,IC50
Cc1ccc(C2C([N+](=O)[O-])C(Cc3ccc(O)cc3)NC23C(=O)c2cccc4cccc3c24)cc1 (stereo not drawn),cell growth or viability,,MTT,24 h,,,71.2 µM
CC(C)C[C@@H]1NC(=O)[C@H](CC(C)C)NC(=O)[C@H](Cc2ccccc2)NC(=O)[C@@H]2CSSC[C@@H](C(=O)O)NC(=O)[C@H](CSSC[C@H](N)C(=O)N3CCC[C@H]3C(=O)N2)NC(=O)CNC1=O,cell adhesion,,,45 min,,ICAM-1-Fc,~80 µM
